Published values gathered from unrelated publications.
Each numbered part is a random draw from the data of one study; scales do not carry over between parts. Several values in a cell are separate wells, animals, samples, runs or records.
Chain of UniProt P23443 (whole entry, looked up): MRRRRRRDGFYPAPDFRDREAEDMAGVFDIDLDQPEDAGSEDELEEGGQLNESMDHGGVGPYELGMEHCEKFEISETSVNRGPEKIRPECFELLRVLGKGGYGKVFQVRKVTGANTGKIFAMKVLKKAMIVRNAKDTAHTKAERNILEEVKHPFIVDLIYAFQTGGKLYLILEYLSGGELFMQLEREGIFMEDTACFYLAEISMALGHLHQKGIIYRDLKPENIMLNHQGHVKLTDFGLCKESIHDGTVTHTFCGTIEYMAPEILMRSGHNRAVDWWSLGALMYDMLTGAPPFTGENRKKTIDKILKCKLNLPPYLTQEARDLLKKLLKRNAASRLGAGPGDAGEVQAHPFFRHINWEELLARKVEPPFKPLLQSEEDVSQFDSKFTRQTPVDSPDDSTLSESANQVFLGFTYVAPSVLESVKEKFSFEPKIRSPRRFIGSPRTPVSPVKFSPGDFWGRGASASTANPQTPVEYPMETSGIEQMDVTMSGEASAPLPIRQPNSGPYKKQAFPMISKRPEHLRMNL
Chain of UniProt Q96D53 (whole entry, looked up): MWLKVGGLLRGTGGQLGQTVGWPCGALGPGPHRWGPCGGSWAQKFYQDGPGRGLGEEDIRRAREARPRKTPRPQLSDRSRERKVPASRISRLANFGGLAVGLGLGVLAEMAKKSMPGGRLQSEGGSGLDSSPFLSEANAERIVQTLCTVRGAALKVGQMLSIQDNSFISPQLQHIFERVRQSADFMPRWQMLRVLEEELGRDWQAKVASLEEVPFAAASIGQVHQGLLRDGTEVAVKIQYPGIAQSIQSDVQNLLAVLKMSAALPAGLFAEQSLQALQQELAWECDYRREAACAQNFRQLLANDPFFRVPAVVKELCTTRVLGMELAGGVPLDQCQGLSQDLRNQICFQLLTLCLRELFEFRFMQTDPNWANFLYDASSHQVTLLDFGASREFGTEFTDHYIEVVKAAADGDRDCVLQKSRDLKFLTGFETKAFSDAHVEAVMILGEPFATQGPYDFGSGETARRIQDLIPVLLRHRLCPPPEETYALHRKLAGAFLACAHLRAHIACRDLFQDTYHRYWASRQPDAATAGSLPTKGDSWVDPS
Chain of UniProt Q00536 (whole entry, looked up): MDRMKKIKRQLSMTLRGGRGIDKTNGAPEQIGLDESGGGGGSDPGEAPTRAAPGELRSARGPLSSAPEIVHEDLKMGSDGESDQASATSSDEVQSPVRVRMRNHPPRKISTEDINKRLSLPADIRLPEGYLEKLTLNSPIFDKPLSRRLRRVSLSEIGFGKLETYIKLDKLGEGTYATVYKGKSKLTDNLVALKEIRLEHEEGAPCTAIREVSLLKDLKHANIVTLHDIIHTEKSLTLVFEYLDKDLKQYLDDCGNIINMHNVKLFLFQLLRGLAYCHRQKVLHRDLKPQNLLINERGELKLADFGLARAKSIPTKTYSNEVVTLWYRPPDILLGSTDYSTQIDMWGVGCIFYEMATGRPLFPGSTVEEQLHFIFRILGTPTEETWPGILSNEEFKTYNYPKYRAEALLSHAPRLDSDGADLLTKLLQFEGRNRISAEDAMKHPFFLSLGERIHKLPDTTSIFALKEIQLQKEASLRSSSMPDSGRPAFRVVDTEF
Chain of UniProt Q8TD08 (whole entry, looked up): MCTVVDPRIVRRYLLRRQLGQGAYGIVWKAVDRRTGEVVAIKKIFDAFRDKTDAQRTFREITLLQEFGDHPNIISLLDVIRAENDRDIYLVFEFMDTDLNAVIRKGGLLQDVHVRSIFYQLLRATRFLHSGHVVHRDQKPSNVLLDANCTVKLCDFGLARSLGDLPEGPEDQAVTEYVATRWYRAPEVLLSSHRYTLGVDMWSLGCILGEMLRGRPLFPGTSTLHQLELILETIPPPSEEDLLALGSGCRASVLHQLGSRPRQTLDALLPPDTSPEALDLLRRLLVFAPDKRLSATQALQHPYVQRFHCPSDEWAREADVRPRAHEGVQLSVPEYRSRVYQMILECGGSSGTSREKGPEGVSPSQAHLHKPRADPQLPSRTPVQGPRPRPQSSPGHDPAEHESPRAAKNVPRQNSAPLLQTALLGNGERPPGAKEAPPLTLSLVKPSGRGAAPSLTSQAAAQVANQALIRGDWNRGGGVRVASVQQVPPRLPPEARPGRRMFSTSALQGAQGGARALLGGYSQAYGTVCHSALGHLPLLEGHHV
Chain of UniProt O15264 (whole entry, looked up): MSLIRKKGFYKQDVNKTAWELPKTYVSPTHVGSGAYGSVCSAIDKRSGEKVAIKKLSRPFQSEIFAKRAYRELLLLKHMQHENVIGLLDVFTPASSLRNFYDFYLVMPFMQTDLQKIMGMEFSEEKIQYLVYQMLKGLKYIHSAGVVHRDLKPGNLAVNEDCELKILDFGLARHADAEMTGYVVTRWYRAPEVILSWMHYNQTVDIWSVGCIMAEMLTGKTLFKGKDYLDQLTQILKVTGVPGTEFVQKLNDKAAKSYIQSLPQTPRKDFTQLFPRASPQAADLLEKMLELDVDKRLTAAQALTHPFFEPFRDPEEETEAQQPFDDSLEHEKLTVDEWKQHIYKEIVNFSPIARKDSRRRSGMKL
Chain of UniProt P29597 (whole entry, looked up): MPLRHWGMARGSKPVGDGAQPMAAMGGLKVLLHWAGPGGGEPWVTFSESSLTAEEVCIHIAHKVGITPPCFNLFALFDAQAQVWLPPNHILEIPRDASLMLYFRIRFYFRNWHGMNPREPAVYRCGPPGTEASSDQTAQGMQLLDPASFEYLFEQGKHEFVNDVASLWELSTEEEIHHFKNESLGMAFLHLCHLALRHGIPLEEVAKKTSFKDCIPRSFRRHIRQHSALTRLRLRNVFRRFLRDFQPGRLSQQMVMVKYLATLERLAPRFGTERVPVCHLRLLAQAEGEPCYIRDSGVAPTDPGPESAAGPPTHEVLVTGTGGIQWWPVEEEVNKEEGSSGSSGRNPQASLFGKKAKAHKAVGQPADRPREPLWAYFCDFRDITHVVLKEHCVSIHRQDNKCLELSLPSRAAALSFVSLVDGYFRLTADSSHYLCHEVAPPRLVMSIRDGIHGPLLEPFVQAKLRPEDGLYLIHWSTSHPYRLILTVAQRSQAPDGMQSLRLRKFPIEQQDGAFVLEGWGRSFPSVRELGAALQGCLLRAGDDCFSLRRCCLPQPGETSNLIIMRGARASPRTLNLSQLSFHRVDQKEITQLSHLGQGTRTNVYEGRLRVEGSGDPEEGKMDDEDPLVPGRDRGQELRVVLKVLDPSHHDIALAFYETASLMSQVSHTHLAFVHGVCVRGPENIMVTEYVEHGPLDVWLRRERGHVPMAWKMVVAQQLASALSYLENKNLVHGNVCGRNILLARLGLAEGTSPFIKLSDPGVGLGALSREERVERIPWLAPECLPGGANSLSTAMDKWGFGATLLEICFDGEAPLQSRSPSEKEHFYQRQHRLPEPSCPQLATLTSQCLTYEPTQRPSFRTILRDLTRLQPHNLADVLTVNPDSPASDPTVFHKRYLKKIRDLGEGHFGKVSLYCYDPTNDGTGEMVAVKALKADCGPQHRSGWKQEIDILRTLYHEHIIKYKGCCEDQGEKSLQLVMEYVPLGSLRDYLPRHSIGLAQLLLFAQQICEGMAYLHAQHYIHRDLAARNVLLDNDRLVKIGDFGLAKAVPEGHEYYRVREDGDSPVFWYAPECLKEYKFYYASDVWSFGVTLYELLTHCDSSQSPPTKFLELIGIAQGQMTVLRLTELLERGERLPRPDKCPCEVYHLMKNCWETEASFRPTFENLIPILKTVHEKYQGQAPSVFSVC

Series 1 — observed: cell-free assay; technique: competition with immobilised ligand; tested at: 1 µM
SMILES: O=C(Nc1cccnn1)N1CC(C/C=C/c2cncc(Oc3ccc(C(F)(F)F)cn3)n2)C1
For Non-receptor tyrosine-protein kinase TYK2, JH2 (TYK2, Homo sapiens, UniProt P29597): remaining binding read 79%.
Mitogen-activated protein kinase 13 (MAPK13, Homo sapiens, UniProt O15264) — remaining binding: 100%.
For Ribosomal protein S6 kinase alpha-1, N-terminal kinase domain (RPS6KA1, Homo sapiens, UniProt Q15418): remaining binding read 100%.
The remaining binding was 100% (Mitogen-activated protein kinase 15 (MAPK15, Homo sapiens, UniProt Q8TD08)).
It gave 71% for remaining binding (Ribosomal protein S6 kinase beta-1 (RPS6KB1, Homo sapiens, UniProt P23443)).
For Cyclin-dependent kinase 16 (CDK16, Homo sapiens, UniProt Q00536): remaining binding read 81%.
For Atypical kinase COQ8B, mitochondrial (COQ8B, Homo sapiens, UniProt Q96D53): remaining binding read 94%.

Series 2
SMILES: CC(=O)N[C@@H](Cc1c[nH]c2ccccc12)C(=O)N[C@@H](CCC(=O)C=[N+]=[N-])C(=O)OC(C)C
For C57BL/6 CES1-/- mouse, EL4 tumour; intravenous, 1 mg/kg DON equivalent, treatment day 7, 5 days per week: tumour volume read 137 mm3 and 218 mm3 and 345 mm3 and 523 mm3 and 384 mm3 and 238 mm3 and 165 mm3 and 520 mm3.
mouse, EL4 tumour; subcutaneous, 1 mg/kg, day 8 — tumour volume: 355 mm3 and 272 mm3 and 279 mm3 and 392 mm3 and 176 mm3 and 131 mm3.
The tumour volume was 784 mm3 and 932 mm3 and 264 mm3 and 363 mm3 and 493 mm3 and 360 mm3 and 618 mm3 and 568 mm3 (C57BL/6 CES1-/- mouse, EL4 tumour; intravenous, 1 mg/kg DON equivalent, treatment day 8, 5 days per week).
mice, MC-38 tumour rechallenge; 1 mg/kg, day 25 after injection — tumour volume: 0 mm3.
It gave 0 mm3 and 288 mm3 and 88 mm3 for tumour volume (mouse, EL4 tumour; subcutaneous, 0.3 mg/kg, day 17).
The tumour volume was 0 mm3 (mice, MC-38 tumour rechallenge; 0.26 mg/kg, day 29 after injection).

Series 3 — observed: enzyme activity; action: inhibitor; tested at: 0.5 µM; relative to: control
Target: Mitogen-activated protein kinase kinase kinase 10 (MAP3K10, Homo sapiens, UniProt Q02779)
Chain of UniProt Q02779 (whole entry, looked up): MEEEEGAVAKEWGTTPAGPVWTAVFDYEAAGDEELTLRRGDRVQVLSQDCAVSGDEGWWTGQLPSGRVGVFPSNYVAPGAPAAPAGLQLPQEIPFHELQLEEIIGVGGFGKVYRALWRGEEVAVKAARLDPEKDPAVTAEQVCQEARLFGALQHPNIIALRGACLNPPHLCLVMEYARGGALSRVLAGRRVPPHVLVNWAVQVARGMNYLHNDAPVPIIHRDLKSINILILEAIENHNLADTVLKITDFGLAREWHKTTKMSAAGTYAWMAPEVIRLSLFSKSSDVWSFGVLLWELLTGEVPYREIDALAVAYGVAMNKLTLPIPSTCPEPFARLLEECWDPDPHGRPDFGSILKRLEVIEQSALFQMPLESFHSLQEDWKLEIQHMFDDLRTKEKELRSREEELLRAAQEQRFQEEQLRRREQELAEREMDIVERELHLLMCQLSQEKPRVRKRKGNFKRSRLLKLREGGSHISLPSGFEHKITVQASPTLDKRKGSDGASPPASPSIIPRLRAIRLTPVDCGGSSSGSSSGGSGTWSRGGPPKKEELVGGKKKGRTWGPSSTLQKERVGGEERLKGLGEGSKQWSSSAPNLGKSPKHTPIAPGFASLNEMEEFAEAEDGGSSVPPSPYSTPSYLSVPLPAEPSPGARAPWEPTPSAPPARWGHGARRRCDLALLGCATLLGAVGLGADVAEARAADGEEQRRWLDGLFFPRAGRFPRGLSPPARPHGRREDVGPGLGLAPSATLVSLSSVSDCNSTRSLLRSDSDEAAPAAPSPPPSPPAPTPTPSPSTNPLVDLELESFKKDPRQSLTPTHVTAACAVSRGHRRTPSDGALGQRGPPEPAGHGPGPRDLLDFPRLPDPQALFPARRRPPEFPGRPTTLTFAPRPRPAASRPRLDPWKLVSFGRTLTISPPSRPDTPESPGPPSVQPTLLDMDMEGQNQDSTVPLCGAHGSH
With `COc1ccc(OC)c2c(=S)c3ccccc3[nH]c12` the remaining activity was 92.8%.
With `Cc1ccc(NC(=O)c2ccc(CN3CCN(C)CC3)cc2)cc1Nc1nc(-c2cccnc2)cs1` the remaining activity was 102%.
The remaining activity of `OCC(O)CCON=C1C(c2c(O)[nH]c3ccccc23)=Nc2ccccc21` (stereo not drawn) is reported as 86.9%.
`O=c1c2ccccc2[nH]c(=S)n1CCN1CCC(=C(c2ccc(F)cc2)c2ccc(F)cc2)CC1` gave a remaining activity of 99.6%.
`CCOC(=O)c1c(C)[nH]c(/C=C2\C(=O)Nc3ccccc32)c1C` gave a remaining activity of 98.5%.
With `COc1ccc(C(=O)Nc2sc3c(c2C(N)=O)CCCC3)cc1OC` the remaining activity was 96.6%.
With `Cn1sc(=O)n(Cc2ccccc2)c1=O` the remaining activity was 99.5%.
The remaining activity of `O=C(CCCc1ccc(-c2ccccc2F)cc1)Nc1ccc(O)cc1` is reported as 88.8%.
For `Nc1[nH]nc2nc3ccccc3nc12`, the remaining activity was 93.1%.
With `Cn1c2ccccc2c2c3c(c4c5ccccc5n(CCC#N)c4c21)CNC3=O` the remaining activity was 25.8%.
The remaining activity of `Cc1nc(-c2ccccc2)c(-c2ccncc2)o1` is reported as 101%.
The remaining activity of `C#Cc1cccc(Nc2ncnc3cc(OCCOC)c(OCCOC)cc23)c1` is reported as 108%.
`NCCNc1ncc(C(N)=O)c(Nc2cccc(C(F)(F)F)c2)n1` gave a remaining activity of 100%.
`O=C1NC(=O)C(c2cn(CCCn3ccnc3)c3ccccc23)=C1Nc1ccccc1` gave a remaining activity of 34.5%.
With `O=C(O)c1ccc2c3c1cccc3c(=O)n1c3ccccc3nc21` the remaining activity was 99.3%.

Series 4 — cell line: mouse MPNST tumor cells; technique: high-content nuclear imaging; item: cell number; tested at: 10 µM; time: 12 h; notes: mean of 2 replicates; relative to: plate mean; reading: higher = more cells
`O=C(Nc1nc2ccc(NC(=O)C34CC5CC(CC(C5)C3)C4)cc2s1)c1ccccc1` has a nuclei count of -5.84 z-score.
`CCN(CC)CCOC(=O)C(c1ccccc1)C1CCCCC1` (stereo not drawn) gave a nuclei count of 0.811 z-score.
The nuclei count of `CN1CC[C@H](c2c(O)cc(O)c3c(=O)cc(-c4ccccc4Cl)oc23)[C@H](O)C1` is reported as -4.56 z-score.
`CCS(=O)(=O)N(C)[C@H]1c2cc(C#N)ccc2OC(C)(C)[C@@H]1O` has a nuclei count of 1.07 z-score.
With `CCn1cc(C(=O)O)c(=O)c2cnc(N3CCNCC3)nc21` the nuclei count was 0.843 z-score.
With `CC(=O)Nc1ccc(OCC(O)CNC(C)C)cc1` (stereo not drawn) the nuclei count was 0.634 z-score.
`CC(C)Oc1ccc(-c2cnc3c(-c4ccnc5ccccc45)cnn3c2)cc1` has a nuclei count of -0.745 z-score.
`COc1cc(-c2cn(C)c(=O)c3cnccc23)c(OC)cc1CN(C)C` has a nuclei count of -2.77 z-score and -3.17 z-score.

Repeated from above (series 1):
The remaining binding was 100% (Mitogen-activated protein kinase 15 (MAPK15, Homo sapiens, UniProt Q8TD08)).
It gave 71% for remaining binding (Ribosomal protein S6 kinase beta-1 (RPS6KB1, Homo sapiens, UniProt P23443)).
For Cyclin-dependent kinase 16 (CDK16, Homo sapiens, UniProt Q00536): remaining binding read 81%.
For Atypical kinase COQ8B, mitochondrial (COQ8B, Homo sapiens, UniProt Q96D53): remaining binding read 94%.
